Measured values from different studies.
Protocols differ between the studies behind these lines. Several values in a cell are separate wells, animals, samples, runs or records. Numbers after ± are the reported error.
Cell line: MDA-MB-231

| Compound | test | setting | IC50 |
| --- | --- | --- | --- |
| Cc1c(Cc2ccccc2)c(=O)oc2c(C)c(OCC(=O)NN=Cc3ccc([N+](=O)[O-])cc3)ccc12 | cell viability, MTT |  | 24.2 µM |
| COc1cc(C#N)c(Oc2ccccc2C)cc1-n1c(=O)cc(C2CC2)[nH]c1=O |  |  | ~30 µM |
| C[C@@H]1CC[C@@H]([C@](O)(CNCc2ccccc2)COCc2ccc(F)cc2)[C@H](OCc2ccc(F)cc2)C1 | cell growth, inhibitor, MTT | 72 h | 1.46 µM |
| CNC(=O)c1cc(Oc2ccc(NC(=O)Nc3ccc(Cl)c(C(F)(F)F)c3)cc2)ccn1 | cell growth, SRB | 72 h | 37.4 ± 8.14 µg/mL |
| CNC(=O)c1ccn2c(-n3c(=O)cc(C(F)(F)F)[nH]c3=O)c(-c3ccccn3)nc2c1 |  |  | > 30 µM |
| COc1ccc(COC[C@@](O)(CNCc2ccccc2)[C@@H]2CC[C@@H](C)C[C@H]2OCc2ccc(OC)cc2)cc1 | cell growth, inhibitor, MTT | 72 h | 2.19 µM |
| O=C1C(=O)N(CCn2ncc3c(=O)[nH]cnc32)c2ccccc21 | cell growth, SRB | 72 h | 27.9 ± 12 µg/mL |
| O=C1NCCc2[nH]c(-c3ccncc3)cc21 | MTS | NCI60 panel | > 10 µM |
| O=C1C(=O)N(CCn2ncc3c(=O)[nH]cnc32)c2ccc(F)cc21 | cell growth, SRB | 72 h | 15.4 ± 1.81 µg/mL |
| COc1ccc(CNC[C@@](C)(O)[C@@H]2CC[C@@H](C)C[C@H]2OCc2ccccc2)cc1 | cell growth, inhibitor, MTT | 72 h | 5.73 µM |
| CNc1nc2c(c(N3CC(=O)Nc4cc(OC)ccc43)n1)CCC2 | cell growth, MTS |  | 0.001 to 0.004 µM |
| CC[C@@]1([C@@H]2O[C@@H]([C@H]3O[C@@](O)(CO)[C@H](C)C[C@@H]3C)C[C@@H]2C)CC[C@H]([C@]2(C)CC[C@]3(C[C@H](O)[C@@H](C)[C@@H]([C@@H](C)[C@@H](OC)[C@H](C)C(=O)O)O3)O2)O1 | cell viability, MTT | 72 h, 3D mini-ring | 0.65 ± 0.459 µM |
| Nc1ncnc2c1ncn2CCN1C(=O)C(=O)c2cc(Cl)ccc21 | cell growth, SRB | 72 h | 6.71 ± 2.89 µg/mL |
| C[C@@H]1CC[C@@H]([C@](O)(CNCc2cccc3ccccc23)COCc2ccccc2)[C@H](OCc2ccccc2)C1 | cell growth, inhibitor, MTT | 72 h | 3.57 µM |
| CCc1c(C)c2ccc(OCc3nnc(S)n3N)c(C)c2oc1=O | cell viability, MTT |  | 219 µM |
| C[C@@H]1CC[C@@H]([C@](C)(O)CNCc2cccc3ccccc23)[C@H](OCc2ccccc2)C1 | cell growth, inhibitor, MTT | 72 h | 25 µM |
| COc1cc(C#N)c(Oc2ccccc2C)cc1-n1c(=O)cc(C(F)(F)F)[nH]c1=O |  |  | ~40 µM |

| Compound | test | setting | IC50 |
| --- | --- | --- | --- |
| C[C@@H]1CC[C@@H]([C@](C)(O)Cn2cnc3ccccc32)[C@H](OCc2ccccc2)C1 | cell growth, inhibitor, MTT | 72 h | 16.7 µM |
| CCOc1ccc2c(C)c(CC)c(=O)oc2c1C | MTT |  | 189 µg/mL |
| O=C(NNS(=O)(=O)c1ccccc1)c1ccc2oc3ccccc3c2c1 |  |  | ~30 µM |
| Cc1c(Cc2ccccc2)c(=O)oc2c(C)c(OCC(=O)NN=Cc3ccco3)ccc12 | MTT |  | 5.07 µg/mL |
| C#CCCCC[C@H](C)C[C@@H](C)C(=O)N1C(=O)OC[C@H]1Cc1ccccc1 | cell growth, sulforhodamine B |  | 128 µM and 91 µM and 85.8 µM |
| C[C@@H]1CC[C@@H]([C@](O)(CNCc2ccccc2)COCc2ccccc2)[C@H](OCc2ccccc2)C1 | cell growth, inhibitor, MTT | 72 h | 3.98 µM |
| CN(C)c1ccc2cc(C(=O)NS(=O)(=O)c3ccccc3-c3ccccc3)oc2c1 | cell proliferation | 144 h | > 20 µM |
| C=CCNC(=S)NNC(=O)COc1ccc2c(C)c(CC)c(=O)oc2c1C | cell viability, MTT |  | 241 µM |
| Cc1ccccc1Oc1cc(-n2c(=O)cc(C(F)(F)F)[nH]c2=O)c(C)cc1C#N |  |  | ~30 µM |
| CCc1c(C)c2ccc(OCC(=O)NN=Cc3ccc([N+](=O)[O-])cc3)cc2oc1=O | MTT |  | 9.66 µg/mL |
| CC(=O)[C@@H]1CCCN1C(=O)[C@@H]1CCCN1C(=O)OC(C)(C)C | cell growth, sulforhodamine B |  | 1.95 µM and 2.18 µM and 2.34 µM |
| C[C@@H]1CC[C@@H]([C@](C)(O)CNCc2cccc(F)c2)[C@H](OCc2ccccc2)C1 | cell growth, inhibitor, MTT | 72 h | 9.94 µM |
| COc1cc(C#N)c(Oc2ccccc2C)cc1-n1c(=O)cc(C(F)(F)C(F)(F)F)[nH]c1=O |  |  | ~26.7 µM |
| CCNC(=S)NNC(=O)COc1ccc2c(C)c(CC)c(=O)oc2c1C | MTT |  | 125 µg/mL |
| Nc1ncnc2c1ncn2CCN1C(=O)C(=O)c2ccccc21 | cell growth, SRB | 72 h | 64.7 ± 3.78 µg/mL |
| C=CCOc1ccc2c(C)c(CC)c(=O)oc2c1C | MTT |  | 156 µg/mL |
| COc1cc(C#N)c(Oc2ccccc2C)cc1-n1c(=O)cc(-c2ccccc2)[nH]c1=O |  |  | ~30 µM |

Repeated from above:
| Compound | test | setting | IC50 |
| --- | --- | --- | --- |
| CNc1nc2c(c(N3CC(=O)Nc4cc(OC)ccc43)n1)CCC2 | cell growth, MTS |  | 0.001 to 0.004 µM |
| Cc1ccccc1Oc1cc(-n2c(=O)cc(C(F)(F)F)[nH]c2=O)c(C)cc1C#N |  |  | ~30 µM |
| CCc1c(C)c2ccc(OCc3nnc(S)n3N)c(C)c2oc1=O | cell viability, MTT |  | 219 µM |
| O=C1C(=O)N(CCn2ncc3c(=O)[nH]cnc32)c2ccc(F)cc21 | cell growth, SRB | 72 h | 15.4 ± 1.81 µg/mL |
| CCOc1ccc2c(C)c(CC)c(=O)oc2c1C | MTT |  | 189 µg/mL |
